Experimental data gathered from unrelated publications.
Each numbered part is a random draw from the data of one study; scales do not carry over between parts. Changes are numbered by the printed parent chain.

Sample 1
Target: Sal-like protein 4, full length isoform A (SALL4, Homo sapiens, UniProt Q9UJQ4, residues 1-1053)
Sequence of UniProt Q9UJQ4 (whole entry, looked up): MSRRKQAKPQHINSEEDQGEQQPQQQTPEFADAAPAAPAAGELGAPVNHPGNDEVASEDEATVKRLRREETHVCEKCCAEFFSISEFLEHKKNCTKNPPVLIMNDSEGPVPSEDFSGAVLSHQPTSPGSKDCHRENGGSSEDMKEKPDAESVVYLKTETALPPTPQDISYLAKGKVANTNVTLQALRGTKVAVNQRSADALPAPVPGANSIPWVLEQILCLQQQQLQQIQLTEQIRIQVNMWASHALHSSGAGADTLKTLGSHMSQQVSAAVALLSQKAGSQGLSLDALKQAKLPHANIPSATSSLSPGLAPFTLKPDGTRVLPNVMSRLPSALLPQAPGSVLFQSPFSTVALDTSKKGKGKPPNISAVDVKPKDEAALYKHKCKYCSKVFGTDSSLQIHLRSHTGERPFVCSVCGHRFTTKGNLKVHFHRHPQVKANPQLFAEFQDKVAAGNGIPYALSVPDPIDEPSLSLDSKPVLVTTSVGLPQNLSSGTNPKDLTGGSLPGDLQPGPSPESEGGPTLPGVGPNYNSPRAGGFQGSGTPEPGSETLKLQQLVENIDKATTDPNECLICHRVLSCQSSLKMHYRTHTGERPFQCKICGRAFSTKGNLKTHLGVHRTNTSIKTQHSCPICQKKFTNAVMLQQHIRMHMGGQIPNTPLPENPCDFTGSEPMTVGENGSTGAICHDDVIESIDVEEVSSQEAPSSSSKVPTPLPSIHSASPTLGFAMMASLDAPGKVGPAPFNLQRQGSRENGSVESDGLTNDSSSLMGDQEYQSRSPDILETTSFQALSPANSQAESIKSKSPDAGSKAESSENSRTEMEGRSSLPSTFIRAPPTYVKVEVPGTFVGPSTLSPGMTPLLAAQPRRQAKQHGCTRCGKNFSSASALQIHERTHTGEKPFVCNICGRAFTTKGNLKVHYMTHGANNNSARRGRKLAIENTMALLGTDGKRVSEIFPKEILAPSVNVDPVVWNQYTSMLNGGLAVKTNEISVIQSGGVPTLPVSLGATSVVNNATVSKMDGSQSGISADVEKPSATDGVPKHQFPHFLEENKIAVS
Method: universal PBM
Molecule type: double-stranded DNA, one strand shown
Sample: in vitro
Concentration: 600 nM
Notes: 8-mer, flanks averaged, mean of replicates
Direction: higher = stronger binding
Endpoint: E-score
CGTCTGCA: -0.124
GGAGCCCC: -0.428
AGATCGGG: -0.268
TCACTCCA: -0.0523
AGGCTATC: -0.0186
CCATGGTC: -0.278
CTCGGCAA: -0.128
AGCGCCGA: -0.193
GCTTAGAC: -0.0827
GCGATAGC: -0.0273
CAATGAGA: 0.108
ACCTATAA: 0.3
TACTTTGA: 0.15
CAGGATGC: -0.237
GAAATGCC: -0.0285
TCACTGGA: 0.0236
TTAAAGAA: 0.3
TAATTCAA: 0.325
GGAACAAA: 0.191
ACTACAGG: -0.000765
AGGAACAC: -0.00386
AAGTTGTG: 0.159
CTCATCTA: 0.0698
GTTGATGA: 0.163
CACTGGCC: -0.277

Sample 2
Target: Interferon regulatory factor 7, full length, phosphomimetic (IRF7, Homo sapiens, UniProt Q92985, residues 1-503, S101K/S471D/S472D/S475D/S476D/S477D/S483D/S484D/S487D)
Sequence of UniProt Q92985 (whole entry, unmodified, looked up): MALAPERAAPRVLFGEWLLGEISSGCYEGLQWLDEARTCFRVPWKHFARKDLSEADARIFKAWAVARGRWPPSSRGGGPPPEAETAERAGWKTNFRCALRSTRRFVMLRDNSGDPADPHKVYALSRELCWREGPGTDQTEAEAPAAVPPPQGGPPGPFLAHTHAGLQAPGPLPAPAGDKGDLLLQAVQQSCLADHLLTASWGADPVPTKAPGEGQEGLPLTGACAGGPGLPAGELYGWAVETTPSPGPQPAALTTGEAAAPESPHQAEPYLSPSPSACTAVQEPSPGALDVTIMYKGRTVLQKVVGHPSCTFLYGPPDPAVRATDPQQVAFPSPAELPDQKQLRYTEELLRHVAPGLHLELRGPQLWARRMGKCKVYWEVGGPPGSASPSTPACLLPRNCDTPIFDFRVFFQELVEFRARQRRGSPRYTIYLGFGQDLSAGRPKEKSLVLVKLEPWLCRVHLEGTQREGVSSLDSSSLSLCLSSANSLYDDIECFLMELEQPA
Method: protein-binding microarray
Molecule type: double-stranded DNA, one strand shown
Sample: in vitro
Concentration: 250 nM
Notes: 60-bp whole probe
Together with: salmon DNA 0.4 mg/ml
Relative to: random background probes
Direction: higher = stronger binding
Endpoint: log fluorescence
Constant ends, left off below: GCCTAGCAC … GTCTTGATTCGCTTGACGCTGCTG
AAGTTTTTATTTTCTGAATGGTGCTAG: 2.23 z-score
TCCTCTCTCTATTCAGAGGAGTGCTAG: 1.9 z-score
GACGGTTTCGGGTATCAGGACGTGCTA: 7.3 z-score
TTAGCTATCGGGTATCGGTTAGTGCTA: 0.266 z-score
TTATGTTTCCTTCTCCTTTAGTGCTAG: 2.07 z-score
AAACAAGTCAATGGCCTTTCGTGCTAG: -0.409 z-score
TCAGGTCTGGATGTGCCACTGTGCTAG: -0.509 z-score
GGTGGTGATGGTGAGTAAGAGTGCTAG: -1.57 z-score
TCACTTTTTGCACTCTCACTGTGCTAG: 0.739 z-score
AAGGTTATCCATCTCAAGTAGTGCTAG: -0.0936 z-score
GACGGTATCCTTCTCCTAACGTGCTAG: 0.491 z-score
TTTGATATCAGTATCGATTAGTGCTAG: 0.649 z-score
GACGGTATCGGTCTGGGGACGTGCTAG: 0.455 z-score
TCATGTATGGGCATTTTTACTGTGCTA: -0.768 z-score
TTAGCTATCGGGTATCGATTAGTGCTA: 0.183 z-score
TTAGAACTGAGTCTCGAGTAGTGCTAG: 0.214 z-score
TTTTTTTTTTGTATTTTTGAGTGCTAG: 0.847 z-score
TTAGAAATCAGTATCGATTAGTGCTAG: 0.679 z-score
GACGGAATCGACTATCGGGACGTGCTA: -0.0786 z-score

Sample 3
Target: RNA binding protein fox-1 homolog 2, RRM domain, GST-SBP tag (RBFOX2, Homo sapiens, UniProt O43251-10, residues 100-194)
Method: RNA Bind-n-Seq
Molecule type: RNA
Sample: in vitro
Concentration: 365 nM
Notes: natural RNA segment, single round, ends assumed
Relative to: no-protein control
Direction: higher = stronger binding
Endpoint: RBNS enrichment (R)
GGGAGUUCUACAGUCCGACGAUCUAAAUUAUUGAGGGGACUAGGCUAUAUGCAUUUGCCUUCAUCCACCCAUGUUUAUUAAGAAUCAUUGUGCUUAAUAAUACCAAGACUAAGCACCAUAACCAAGAAAUACUUGGAAUUCUCGGGUGCCAA: 0.55
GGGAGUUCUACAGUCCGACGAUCAGCAAAGCAUCUAUCUAUUCUGAAUCAUGUUUGGAAAUAAAAUUGCUCCAUCUGGGAAUGUGCUUUCUUUUCCCGUCUCAUUUUCUGUUUCCCAUUUGAAAACAGUGUUCUGGAAUUCUCGGGUGCCAA: 1.19
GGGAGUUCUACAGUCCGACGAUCUCUCAUUCUUGGUGCAACUGGCUUCCAGCUCUCCAGCAGUCACUCUCCUAGGUGCAUGAUUCAGUGCGUGCCAUGUGUCAUUAGCUUUUACUGAUAACCAUAUUCUGGCUUGGAAUUCUCGGGUGCCAA: 1.31
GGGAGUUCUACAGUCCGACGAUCUAACUUUAGGUUUACUUUCACUUGUUAUUUGACUUAGCAGGUGCAACAAAAACAAGAAACAAAUGUGCCCACCCCACUUUCCGCUUAACUGAAAAGCUUAAAAUAAAUUUUGGAAUUCUCGGGUGCCAA: 0.484
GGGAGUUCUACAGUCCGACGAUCCCCAGCUGUGGCGGGAGGUGCAGAGCAGAGGGCUUUAGGGAGCAGUGACUGCGGUCACCCCUUUAGUUCUCUGGGUGUAGACCACACCACCUCCCACUGGGCACCCCCCAUGGAAUUCUCGGGUGCCAA: 0.399
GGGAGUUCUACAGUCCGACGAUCUCCUCUGUAGCUUGAGCUACCCCUCCCCUGCUGUAACUUACGUGACCUGUGCUGUCACUGGGCAUAGGACAGCGGCAUCACGGUUGCAUUCCCAUUGGACUCAUGCACCUUGGAAUUCUCGGGUGCCAA: 0.554
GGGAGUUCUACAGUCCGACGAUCGGAUGGCGGUUUGGAUUUCUUUGCUCAGAGCCAAUGCAGUUGACACAGUGGCUGCUGGGUUACUGUCCCAUGAGACUGUACUGGACGGGUGCAGCCAGAGUGGCGCAGUGUGGAAUUCUCGGGUGCCAA: 0.458
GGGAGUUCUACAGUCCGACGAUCAGACCACCCUUCUUCCCAAGUGUUGAUUAUGUGACUUCUGAUACAUCCGUUCUCAAACUCCGGUGUGCCCACAUCUGCCUCCUCACCAGCCUGGUCUGUAUUUAAAGCUUUGGAAUUCUCGGGUGCCAA: 0.434

Sample 4
Target: CCNE1, cyclin fold, Cln2 fusion (human)
Method: yeast growth competition, sequencing
Sample: yeast
Notes: weak parent motif
Relative to: not given
Direction: higher = stronger binding
Endpoint: normalised enrichment score
Starting sequence: SLBP docking peptide (human); ARYKRKLLINDFG
F12M: -0.214
N10R: -0.0721
L7R: 0.0794
N10E: 0.936
K4F: 0.822
K6S: 0.0242
A1G: 0.832
N10K: 0.0569
F12E: 0.294
D11K: 1.11
F12R: 0.668
F12A: 0.139
L7C: 0.107
Y3I: 0.598
K6M: 0.451
Y3N: -0.187

Excerpt of the above (sample 4):
F12M: -0.214
N10R: -0.0721
L7R: 0.0794
N10E: 0.936
K4F: 0.822
K6S: 0.0242
A1G: 0.832
